Experimental data collected from several papers.
Lines come from different studies, so protocols differ. ± gives the spread as reported.
Methyl-accepting chemotaxis protein CtaA sensing domain: Methyl-accepting chemotaxis protein CtaA, sensing domain (Pseudomonas fluorescens, UniProt Q3K7T6)
Rbp1: Retinol-binding protein 1 (Rbp1, Rattus norvegicus, UniProt P02696)
UniProt P02696, sequence (whole entry, looked up): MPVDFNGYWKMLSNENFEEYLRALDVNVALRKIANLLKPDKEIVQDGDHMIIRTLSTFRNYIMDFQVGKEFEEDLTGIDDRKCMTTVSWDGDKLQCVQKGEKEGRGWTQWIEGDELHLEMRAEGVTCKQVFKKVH
STARD3 START domain: StAR-related lipid transfer protein 3, START domain (STARD3, Homo sapiens, UniProt Q14849)
UniProt P53215, sequence (whole entry, unmodified, looked up): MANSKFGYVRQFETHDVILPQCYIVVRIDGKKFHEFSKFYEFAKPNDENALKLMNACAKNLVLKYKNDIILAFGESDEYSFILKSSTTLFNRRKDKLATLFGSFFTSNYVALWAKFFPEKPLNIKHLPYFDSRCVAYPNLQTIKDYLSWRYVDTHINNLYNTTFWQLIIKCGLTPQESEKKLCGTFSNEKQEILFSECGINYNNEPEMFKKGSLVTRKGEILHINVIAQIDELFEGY
UniProt Q14849, sequence (whole entry, looked up): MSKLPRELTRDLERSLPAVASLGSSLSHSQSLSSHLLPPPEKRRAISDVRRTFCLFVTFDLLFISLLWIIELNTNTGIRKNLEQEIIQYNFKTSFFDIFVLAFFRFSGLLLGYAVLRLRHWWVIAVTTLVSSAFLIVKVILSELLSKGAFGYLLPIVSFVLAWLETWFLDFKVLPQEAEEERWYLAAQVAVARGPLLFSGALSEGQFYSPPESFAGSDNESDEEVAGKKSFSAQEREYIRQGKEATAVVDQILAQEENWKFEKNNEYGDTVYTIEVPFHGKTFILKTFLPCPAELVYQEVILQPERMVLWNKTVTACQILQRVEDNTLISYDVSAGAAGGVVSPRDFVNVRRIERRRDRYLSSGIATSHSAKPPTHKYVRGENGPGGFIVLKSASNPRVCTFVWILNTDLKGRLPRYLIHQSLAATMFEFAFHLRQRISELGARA
UniProt P32198, sequence (whole entry, looked up): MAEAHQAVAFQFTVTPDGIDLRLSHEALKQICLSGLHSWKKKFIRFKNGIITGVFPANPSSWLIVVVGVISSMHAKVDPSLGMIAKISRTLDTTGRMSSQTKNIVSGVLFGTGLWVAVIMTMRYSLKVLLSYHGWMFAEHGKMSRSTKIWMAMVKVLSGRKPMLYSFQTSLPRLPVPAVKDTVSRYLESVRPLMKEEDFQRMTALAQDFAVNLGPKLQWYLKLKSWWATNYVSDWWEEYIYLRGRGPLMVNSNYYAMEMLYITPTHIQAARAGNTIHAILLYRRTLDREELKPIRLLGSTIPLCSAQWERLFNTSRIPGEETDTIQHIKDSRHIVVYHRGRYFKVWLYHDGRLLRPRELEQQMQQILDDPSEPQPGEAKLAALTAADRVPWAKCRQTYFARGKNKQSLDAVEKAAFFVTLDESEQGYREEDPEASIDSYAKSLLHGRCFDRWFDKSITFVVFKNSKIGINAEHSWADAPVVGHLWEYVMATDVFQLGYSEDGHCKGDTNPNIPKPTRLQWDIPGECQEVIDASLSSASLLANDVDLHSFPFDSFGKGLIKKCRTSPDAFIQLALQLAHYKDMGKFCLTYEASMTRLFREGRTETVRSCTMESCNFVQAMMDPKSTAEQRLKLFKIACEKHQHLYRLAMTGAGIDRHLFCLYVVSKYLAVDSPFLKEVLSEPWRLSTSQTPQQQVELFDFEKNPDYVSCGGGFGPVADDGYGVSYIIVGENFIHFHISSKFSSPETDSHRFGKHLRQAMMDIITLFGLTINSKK
UniProt O14745, sequence (whole entry, looked up): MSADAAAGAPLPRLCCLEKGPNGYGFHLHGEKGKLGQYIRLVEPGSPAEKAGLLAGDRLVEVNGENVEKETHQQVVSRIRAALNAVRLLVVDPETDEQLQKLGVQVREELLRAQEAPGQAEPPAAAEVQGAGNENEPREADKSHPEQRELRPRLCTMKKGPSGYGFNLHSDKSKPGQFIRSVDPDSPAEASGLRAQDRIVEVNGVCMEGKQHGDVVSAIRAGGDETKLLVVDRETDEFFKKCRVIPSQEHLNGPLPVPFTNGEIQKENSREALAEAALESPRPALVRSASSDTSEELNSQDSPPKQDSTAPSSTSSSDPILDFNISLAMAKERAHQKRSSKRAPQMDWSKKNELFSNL
UniProt O32253, sequence (whole entry, looked up): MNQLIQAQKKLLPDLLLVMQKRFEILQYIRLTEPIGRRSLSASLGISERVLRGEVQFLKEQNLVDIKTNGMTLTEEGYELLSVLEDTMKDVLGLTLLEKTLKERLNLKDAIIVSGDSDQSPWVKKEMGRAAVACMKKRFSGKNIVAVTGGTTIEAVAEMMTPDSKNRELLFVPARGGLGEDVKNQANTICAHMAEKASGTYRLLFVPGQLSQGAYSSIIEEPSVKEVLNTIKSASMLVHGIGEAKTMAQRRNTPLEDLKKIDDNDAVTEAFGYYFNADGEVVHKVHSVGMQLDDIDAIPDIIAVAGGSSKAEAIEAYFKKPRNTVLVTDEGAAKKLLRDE
UniProt Q9UNA4, sequence (whole entry, looked up): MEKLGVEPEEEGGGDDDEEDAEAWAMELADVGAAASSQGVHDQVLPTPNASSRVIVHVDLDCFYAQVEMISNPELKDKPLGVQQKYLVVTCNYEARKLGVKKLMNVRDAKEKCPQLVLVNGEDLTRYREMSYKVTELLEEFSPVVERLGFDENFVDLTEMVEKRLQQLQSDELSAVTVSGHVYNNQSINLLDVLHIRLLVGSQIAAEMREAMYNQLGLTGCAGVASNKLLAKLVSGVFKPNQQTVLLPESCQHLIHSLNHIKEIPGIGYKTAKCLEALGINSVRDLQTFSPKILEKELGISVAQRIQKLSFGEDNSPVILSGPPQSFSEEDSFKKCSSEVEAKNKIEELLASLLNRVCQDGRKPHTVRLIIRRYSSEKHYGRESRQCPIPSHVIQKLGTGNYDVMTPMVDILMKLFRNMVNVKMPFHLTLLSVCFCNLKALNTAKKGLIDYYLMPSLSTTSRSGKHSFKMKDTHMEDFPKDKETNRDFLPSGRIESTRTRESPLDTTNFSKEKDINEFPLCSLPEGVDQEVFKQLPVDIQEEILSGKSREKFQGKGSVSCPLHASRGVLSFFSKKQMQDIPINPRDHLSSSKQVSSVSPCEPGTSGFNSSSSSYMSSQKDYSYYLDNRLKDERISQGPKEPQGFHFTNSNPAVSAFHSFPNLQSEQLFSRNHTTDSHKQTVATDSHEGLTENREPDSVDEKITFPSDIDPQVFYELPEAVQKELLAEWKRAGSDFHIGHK
UniProt P02730, sequence (whole entry, looked up): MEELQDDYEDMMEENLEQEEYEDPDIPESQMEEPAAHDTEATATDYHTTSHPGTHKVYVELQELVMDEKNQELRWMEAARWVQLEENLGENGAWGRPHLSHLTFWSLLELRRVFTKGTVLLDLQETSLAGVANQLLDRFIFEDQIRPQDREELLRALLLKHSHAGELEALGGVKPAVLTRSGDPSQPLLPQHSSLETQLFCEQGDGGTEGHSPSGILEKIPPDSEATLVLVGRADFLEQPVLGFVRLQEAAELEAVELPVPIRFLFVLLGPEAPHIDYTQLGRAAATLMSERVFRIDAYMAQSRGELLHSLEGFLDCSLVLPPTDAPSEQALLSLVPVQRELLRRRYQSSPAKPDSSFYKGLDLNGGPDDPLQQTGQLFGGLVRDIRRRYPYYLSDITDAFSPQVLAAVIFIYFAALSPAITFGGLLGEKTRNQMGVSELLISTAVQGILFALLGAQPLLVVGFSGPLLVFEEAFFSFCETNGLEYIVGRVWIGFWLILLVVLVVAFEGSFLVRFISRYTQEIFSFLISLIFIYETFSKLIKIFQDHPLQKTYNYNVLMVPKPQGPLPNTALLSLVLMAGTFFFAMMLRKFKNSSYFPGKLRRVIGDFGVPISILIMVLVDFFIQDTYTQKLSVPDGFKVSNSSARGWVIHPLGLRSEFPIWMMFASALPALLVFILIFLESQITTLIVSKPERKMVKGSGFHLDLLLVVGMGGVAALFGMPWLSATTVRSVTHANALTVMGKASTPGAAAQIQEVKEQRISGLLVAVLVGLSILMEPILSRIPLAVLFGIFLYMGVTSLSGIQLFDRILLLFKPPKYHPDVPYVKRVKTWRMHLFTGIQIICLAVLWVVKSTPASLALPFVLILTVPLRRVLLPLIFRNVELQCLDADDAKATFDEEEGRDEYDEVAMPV
UniProt P51800, sequence (whole entry, unmodified, looked up): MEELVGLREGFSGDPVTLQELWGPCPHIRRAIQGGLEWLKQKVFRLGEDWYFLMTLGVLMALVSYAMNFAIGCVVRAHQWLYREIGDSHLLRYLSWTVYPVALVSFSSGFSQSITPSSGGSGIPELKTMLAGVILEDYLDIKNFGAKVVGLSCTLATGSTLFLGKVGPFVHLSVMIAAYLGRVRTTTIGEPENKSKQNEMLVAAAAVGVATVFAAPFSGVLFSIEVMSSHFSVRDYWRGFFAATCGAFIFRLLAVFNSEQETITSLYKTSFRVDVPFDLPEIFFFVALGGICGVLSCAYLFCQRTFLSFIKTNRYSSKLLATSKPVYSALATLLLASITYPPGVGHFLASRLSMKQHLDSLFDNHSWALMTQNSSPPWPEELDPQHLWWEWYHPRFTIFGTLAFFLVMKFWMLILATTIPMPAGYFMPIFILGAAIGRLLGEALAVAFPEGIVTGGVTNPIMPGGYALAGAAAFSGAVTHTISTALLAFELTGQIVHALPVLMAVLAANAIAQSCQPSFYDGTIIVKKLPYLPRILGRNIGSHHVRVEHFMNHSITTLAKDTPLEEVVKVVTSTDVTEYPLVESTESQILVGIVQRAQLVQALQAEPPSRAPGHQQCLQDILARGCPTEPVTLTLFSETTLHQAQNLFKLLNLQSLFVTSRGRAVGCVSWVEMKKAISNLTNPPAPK
UniProt P06702, sequence (whole entry, looked up): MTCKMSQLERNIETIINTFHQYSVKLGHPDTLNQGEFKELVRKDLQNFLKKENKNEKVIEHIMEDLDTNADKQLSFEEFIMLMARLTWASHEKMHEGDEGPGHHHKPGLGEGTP

CC(C)C[C@H](N)C(=O)O — Kd (Methyl-accepting chemotaxis protein CtaA sensing domain; binding, thermal shift, zero heat capacity; 25 °C): 30 ± 8 µM
O=C(O)c1cccnc1Nc1cccc(C(F)(F)F)c1 — Kd (CLCNKA (Homo sapiens, UniProt P51800, N257A); chloride current, blocker, voltage clamp; Xenopus oocytes): ~1 µM
O=C(O)c1cc(NC(=O)C2CC2c2ccccc2)ccc1O (stereo not shown) — Kd (GTPase KRas (KRAS, Homo sapiens, UniProt P01116, G12D); microscale thermophoresis; first high-affinity site, together with: GNP-bound): 0.35 ± 0.08 µM
CC[n+]1c(-c2ccccc2)c2cc(N)ccc2c2ccc(N)cc21 — Kd (HIV-1 SL2 RNA stem-loop; binding, ESI-FTMS titration; pH 7.5): 2.6 ± 0.2 µM
Nc1nc2c(ncn2C2OC3COP(=O)(O)OC4C(COP(=O)(O)OC3C2O)OC(n2cnc3c(=O)[nH]c(N)nc32)C4OC(=O)NCCCCCCNC(=O)c2ccc(-c3c4ccc(=O)cc-4oc4cc(O)ccc34)c(C(=O)O)c2)c(=O)[nH]1 (stereo not shown) — Kd (Transcriptional regulator BldD, C-terminal domain (Streptomyces venezuelae, UniProt F2RCL8); fluorescence polarization; pH 7.5, 25 °C, apparent, multi-site assembly): 1.8 ± 0.5 µM
CC(=O)N[C@@H](CC(C)C)C(=O)N[C@@H](CCCCN)C(=O)N[C@@H](CCCCN)C(=O)N[C@@H](CC(C)C)C(=O)N[C@@H](Cc1c[nH]c2ccccc12)C(=O)N[C@@H](CCCCN)C(=O)N[C@@H](CC(C)C)C(=O)N[C@@H](CC(C)C)C(=O)N[C@@H](CCCCN)C(=O)N[C@@H](CCCCN)C(=O)N[C@@H](CC(C)C)C(=O)N[C@@H](CC(C)C)C(=O)N[C@@H](CCCCN)C(=O)N[C@@H](CC(C)C)C(=O)N[C@@H](C)C(=O)NCC(N)=O — Kd (16S rRNA A-site hairpin (Escherichia coli); competitive fluorescence anisotropy; pH 7.4, 20 °C, together with: rhodamine-Rev peptide): 0.012 ± 0.001 µM
CC(C)[C@H](N)C(=O)O — Kd (Methyl-accepting chemotaxis protein CtaA sensing domain; binding, thermal shift, zero heat capacity; 25 °C): 4.7 ± 0.5 µM
[I-].[K+] — Kd (SLC4A1 (Homo sapiens, UniProt P02730); Cl- exchange, inhibitor, 36Cl flux, two-site model; erythrocytes; only site D protonated): 56000 µM
CC1=C(/C=C/C(C)=C/C=C/C(C)=C\CO)C(C)(C)CCC1 — Kd (Rbp1; binding, fluorescence titration; pH 7.4, 25 °C): 0.003 ± 0.001 µM
CC/C=C/C=C\C=C/C=C/CCCCCCCC(=O)SCCNC(=O)CCNC(=O)[C@H](O)C(C)(C)COP(=O)(O)OP(=O)(O)OC[C@H]1O[C@@H](n2cnc3c(N)ncnc32)[C@H](O)[C@@H]1OP(=O)(O)O (relative stereo) — Kd (Carnitine O-palmitoyltransferase 1, liver isoform, C-terminal peptide (Rattus norvegicus, UniProt P32198); fluorescence titration; pH 7.4, 24 °C): 0.009 ± 0.001 µM
Cn1cc(NC(=O)c2cc(NC(=O)c3cc(NC=O)cn3C)cn2C)cc1C(=O)NCCC(=N)N — Kd (HIV-1 SL2 RNA stem-loop; binding, ESI-FTMS titration; pH 7.5): 75.4 ± 7.5 µM
C#CC[C@H](NC(=O)[C@@H]1C[C@@H](C2CCCCC2)CN1C(=O)CSC1CCN(C(=O)CC[C@H](NC(=O)N[C@@H](CCC(=O)O)C(=O)O)C(=O)O)CC1)C(=O)NCCOCCOCCNC(=S)Nc1ccc2c(c1)C(=O)OC21c2ccc(O)cc2Oc2cc(O)ccc21 — Kd (N-acetylated-alpha-linked acidic dipeptidase 2 (Homo sapiens, UniProt Q9Y3Q0); cell-free assay, FP): 0.038 µM
salvianolic acid B — Kd (Prothrombin (F2, Homo sapiens, UniProt P00734); binding, intrinsic fluorescence; pH 7.4, 20 °C): 21.7 ± 1.5 µM
CN1C(=Cc2cc[n+](C)c3ccccc23)Sc2ccccc21 — Kd (RNA A; RNase V1 footprinting; pH 7.0, ambient, together with: 10 mM MgCl2): 3.1 ± 1.8 µM
[Mg+2] — Kd (pyruvate carboxylase Rhizobium etli; enzyme activity; together with: MgATP varied): 1200 µM
Nc1nc2c(ncn2[C@@H]2O[C@H](COP(=O)(O)OP(=O)(O)OP(=O)(O)O)[C@@H](O)[C@H]2O)c(=O)[nH]1 — Kd (tRNA(His) guanylyltransferase (THG1, Saccharomyces cerevisiae, UniProt P53215, R133A); nucleotidyl transfer, substrate, single-turnover kinetics; pH 7.5, room temperature, together with: ppp-tRNA(His)): 85 ± 30 µM
C[C@H](N)C(=O)O — Kd (Methyl-accepting chemotaxis protein CtaA sensing domain; binding, thermal shift, unfolding equilibrium; 25 °C): 3.8 ± 0.7 µM
CC(C)C1=CC23CCC4C(C)(C(=O)O)CCCC4(C)C2CC1C(C(=O)O)C3C(=O)O (stereo not shown) — Kd (Replication protein A 70 kDa DNA-binding subunit, N-terminal domain (RPA1, Homo sapiens, UniProt P27694); binding, fluorescence polarization; 5% DMSO, together with: FITC-ATRIP 50 nM): 18 µM
N[C@@H](CO)C(=O)O — Kd (Methyl-accepting chemotaxis protein CtaA sensing domain; binding, thermal shift, zero heat capacity; 25 °C): 13 ± 3 µM
CC(=O)N[C@@H](Cc1c[nH]c2ccccc12)C(=O)N[C@@H](CCCCN)C(=O)N[C@@H](CCCCN)C(=O)N[C@@H](CC(C)C)C(=O)N[C@@H](CC(C)C)C(=O)N[C@@H](CCCCN)C(=O)N[C@@H](CC(C)C)C(=O)N[C@@H](CC(C)C)C(=O)N[C@@H](CCCCN)C(=O)N[C@@H](CCCCN)C(=O)N[C@@H](CC(C)C)C(=O)N[C@@H](CC(C)C)C(=O)N[C@@H](CCCCN)C(=O)N[C@@H](CC(C)C)C(=O)N[C@@H](C)C(=O)NCC(N)=O — Kd (16S rRNA A-site hairpin (Escherichia coli); competitive fluorescence anisotropy; pH 7.4, 20 °C, together with: rhodamine-Rev peptide): 0.00076 ± 5e-05 µM
CCCCCCCCCCCCOC(=O)[C@@H](C)[C@@]1(O)[C@@H](O[C@@H]2OC[C@H](O)[C@H](O[C@@H]3OC[C@@H](O)[C@H](O)[C@H]3OC(=O)c3ccc(OC)cc3)[C@H]2OC(C)=O)C[C@H]2[C@@H]3CC=C4C[C@@H](O)CC[C@]4(C)[C@H]3CC[C@@]21C — Kd (Tyrosine-protein phosphatase non-receptor type 1 (PTPN1, Homo sapiens, UniProt P18031); binding, microscale thermophoresis; HEK293 lysate, GFP-tagged protein; pH 7.5, 25 °C): 0.0232 ± 0.0008 µM
CC[C@H](C)[C@H](NC(=O)[C@@H](NC(=O)[C@@H](NC(=O)[C@H](CO)NC(=O)[C@H](CO)NC(=O)[C@@H](NC(=O)[C@H](CC(C)C)NC(=O)[C@H](CC(N)=O)NC(=O)[C@H](C)NC(=O)[C@H](CCC(=O)O)NC(=O)[C@H](CCCNC(=N)N)NC(=O)[C@H](CC(=O)O)NC(=O)[C@@H](N)CC(C)C)[C@@H](C)O)C(C)C)[C@@H](C)O)C(=O)N[C@@H](CC(C)C)C(=O)N1CCC[C@H]1C(=O)N[C@@H](CC(C)C)C(=O)N1CCC[C@H]1C(=O)N[C@@H](CC(C)C)C(=O)N[C@@H](CCC(N)=O)C(=O)N[C@@H](CC(N)=O)C(=O)N[C@@H](C)C(=O)N[C@H](C(=O)N[C@H](C(=O)N[C@@H](CCC(=O)O)C(=O)N[C@@H](C)C(=O)NCC(=O)N[C@H](C(=O)N[C@@H](CCCNC(=N)N)C(=O)O)[C@@H](C)O)C(C)C)[C@@H](C)O — Kd (Protein S100-A9 (S100A9, Homo sapiens, UniProt P06702); binding, ELISA; together with: His-tagged S100A9): > 0.1 µM
O=C(CO)COP(=O)(O)O — Kd (cggR (Bacillus subtilis, UniProt O32253); binding, fluorescence titration): 144 µM
N=C(N)NCCC[C@H](NC(=O)c1ccc2c(c1)C(=O)OC21c2ccc(O)cc2Oc2cc(O)ccc21)C(=O)N[C@@H](CO)C(=O)N[C@@H](CCCNC(=N)N)C(=O)N[C@@H](CO)C(=O)N[C@@H](CCCNC(=N)N)C(=O)N[C@@H](CO)C(=O)N[C@@H](CCCNC(=N)N)C(=O)N[C@@H](CO)C(=O)N[C@@H](CCCNC(=N)N)C(=O)N[C@@H](CO)C(=O)N[C@@H](CCCNC(=N)N)C(=O)N[C@@H](CO)C(=O)N[C@@H](CCCNC(=N)N)C(=O)N[C@@H](CO)C(=O)N[C@@H](CCCNC(=N)N)C(=O)N[C@@H](CO)C(=O)N[C@@H](CCCNC(=N)N)C(=O)N[C@@H](CO)C(=O)N[C@@H](CCCNC(=N)N)C(=O)N[C@@H](CO)C(=O)N[C@@H](CCCNC(=N)N)C(=O)N[C@@H](CO)C(=O)N[C@@H](CCCNC(=N)N)C(=O)N[C@@H](CO)C(=O)N[C@@H](CCCNC(=N)N)C(=O)N[C@@H](CO)C(=O)N[C@@H](CCCNC(=N)N)C(=O)N[C@@H](CO)C(=O)N[C@@H](CCCNC(=N)N)C(=O)N[C@@H](CO)C(=O)N[C@@H](CCCNC(=N)N)C(=O)N[C@@H](CO)C(=O)O — Kd (SRPK1 ΔS; peptide binding, fluorescence; together with: fluorescein-labelled Arg-Ser peptide): 0.034 ± 0.004 µM
O=S(=O)(O)c1cccc2cccc(Nc3ccc(Cl)cc3)c12 — Kd (Cyclin-dependent kinase 2 (CDK2, Homo sapiens, UniProt P24941); binding): 17 µM
CSCC[C@H](NC(=O)[C@@H](NC(=O)[C@@H](NC(=O)[C@H](CCC(=O)O)NC(=O)[C@H](Cc1c[nH]c2ccccc12)NC(=O)[C@H](C)NC(=O)[C@H](C)NC(=O)[C@@H](N)CCC(N)=O)[C@@H](C)O)C(C)C)C(=O)O — Kd (Na(+)/H(+) exchange regulatory cofactor NHE-RF1, PDZ2 domain (NHERF1, Homo sapiens, UniProt O14745); isothermal titration calorimetry; pH 8.0, 25 °C): 57.8 ± 2 µM
NC[C@@H]1O[C@H](O[C@H]2[C@@H](O)[C@H](O[C@@H]3[C@@H](O)[C@H](N)C[C@H](N)[C@H]3O[C@H]3O[C@H](CN)[C@@H](O)[C@H](O)[C@H]3N)O[C@@H]2CO)[C@H](N)[C@@H](O)[C@@H]1O — Kd (HIV-1 SL2 RNA stem-loop; binding, ESI-FTMS titration; pH 7.5): 3 ± 0.6 µM
N[C@@H](Cc1ccc(OP(=O)(O)O)cc1)C(=O)O — Kd (Tyrosine-protein phosphatase non-receptor type 11, N-SH2 domain (PTPN11, Homo sapiens, UniProt Q06124, K55V/N37V/T42A); binding to superbinder N-SH2 domain; 298 K): 160 µM
Nc1ncnc2c1ncn2[C@@H]1O[C@H](COP(=O)(O)OP(=O)(O)OP(=O)(O)O)[C@@H](O)[C@H]1O — Kd (Serine/threonine-protein kinase TAO2 (TAOK2, Homo sapiens, UniProt Q9UL54)): 1.1 µM
Nc1ncnc2c1ncn2[C@@H]1O[C@H](COP(=O)(O)OP(=O)(O)OP(=O)(O)O)[C@@H](O)[C@H]1O — Kd (tRNA(His) guanylyltransferase (THG1, Saccharomyces cerevisiae, UniProt P53215, K96A); tRNA(His) adenylylation, substrate, single-turnover kinetics; pH 6.0, room temperature, together with: p-tRNA(His)): 320 ± 50 µM
CC1=C[C@H](O)CC(C)(C)[C@H]1/C=C/C(C)=C/C=C/C(C)=C/C=C/C=C(C)/C=C/C=C(C)/C=C/C1=C(C)C[C@@H](O)CC1(C)C — Kd (STARD3 START domain; binding, SPR; 25 °C): 0.59 ± 0.03 µM
Nc1ccn([C@H]2C[C@H](O)[C@@H](COP(=O)(O)OP(=O)(O)OP(=O)(O)O)O2)c(=O)n1 — Kd (DNA polymerase iota (Homo sapiens, UniProt Q9UNA4); substrate; pH 8.0, 37 °C, pre-steady-state, Mg2+, together with: dNTP opposite O2-POB-dT template): 27 ± 3 µM
CC1=C(/C=C/C(C)=C/C=C/C(C)=C/C=C/C=C(C)/C=C/C=C(C)/C=C/C2=C(C)C[C@H](O)CC2(C)C)C(C)(C)C[C@H](O)C1 — Kd (STARD3 START domain; binding, SPR; 25 °C): 1.63 ± 0.07 µM
CC1=C(/C=C/C(C)=C\C=C\C(C)=C\C=O)C(C)(C)CCC1 — Kd (Rbp1; binding, fluorescence titration; pH 7.4, 25 °C): 0.008 ± 0.004 µM

For quick reference, copied from above:
Nc1ncnc2c1ncn2[C@@H]1O[C@H](COP(=O)(O)OP(=O)(O)OP(=O)(O)O)[C@@H](O)[C@H]1O — Kd (Serine/threonine-protein kinase TAO2 (TAOK2, Homo sapiens, UniProt Q9UL54)): 1.1 µM
Nc1ncnc2c1ncn2[C@@H]1O[C@H](COP(=O)(O)OP(=O)(O)OP(=O)(O)O)[C@@H](O)[C@H]1O — Kd (tRNA(His) guanylyltransferase (THG1, Saccharomyces cerevisiae, UniProt P53215, K96A); tRNA(His) adenylylation, substrate, single-turnover kinetics; pH 6.0, room temperature, together with: p-tRNA(His)): 320 ± 50 µM
CC1=C[C@H](O)CC(C)(C)[C@H]1/C=C/C(C)=C/C=C/C(C)=C/C=C/C=C(C)/C=C/C=C(C)/C=C/C1=C(C)C[C@@H](O)CC1(C)C — Kd (STARD3 START domain; binding, SPR; 25 °C): 0.59 ± 0.03 µM
